Published values of several laboratories.
Each numbered part is a random draw from the data of one study; scales do not carry over between parts. Substitutions count along the parent as printed.

Study 1 — technique: RNA Bind-n-Seq; molecule type: RNA; sample: in vitro; tested at: 365 nM; relative to: no-protein control; reading: higher = stronger binding
Target: RNA binding protein fox-1 homolog 2, RRM domain, GST-SBP tag (RBFOX2, Homo sapiens, UniProt O43251-10, residues 100-194)
Notes: natural RNA segment, single round, ends assumed
Construct (chain): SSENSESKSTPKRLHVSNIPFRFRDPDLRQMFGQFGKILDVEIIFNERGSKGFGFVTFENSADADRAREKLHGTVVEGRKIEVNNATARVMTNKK
| Strand | RBNS enrichment (R) |
| --- | --- |
| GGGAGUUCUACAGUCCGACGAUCCCCUAAAGACAAUUCCUGAACCUGCCCCCAGCCUCUUUGGCUGCCAUUUAUGUCGUGUGUGAGUGAGUGAUACGCAGAGUUCUUUACUGCUGUCUGUGGUGUGUGUGCCUUGGAAUUCUCGGGUGCCAA | 0.964 |
| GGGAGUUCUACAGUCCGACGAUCGACAGCUAGCUAAGUCAAGCUUUUCAAUAGAGGAGAAAAUAAAGAUGGCGACAGGUUGGCUUAGGUGGAGGAAGAAAAGAGUUAUCAUUUUUAGACUAAAUCCACGCAUGUGGAAUUCUCGGGUGCCAA | 0.569 |
| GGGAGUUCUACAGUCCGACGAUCCUUCACAUUCAAAGACUGUCACCCAUGAACGUCAGACUUUGCAAAGGGGCUCUCUAAGCUGCACUGUUGUGGCUUUGUCUAAAAUUUUAAUGACGUUUCUGAGAACCAUGUGGAAUUCUCGGGUGCCAA | 0.395 |
| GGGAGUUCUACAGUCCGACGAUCAUCCUGGCUUUGCCCAACCUCAGCAACCUGUAAGACUGAUAAUGAAAUAAAUCAUGUUAAUCCUAGCUGUGUGCAGUCUCUCUUACCCUUCUGUGCCCAGCUCAGUCUUCUGGAAUUCUCGGGUGCCAA | 0.32 |
| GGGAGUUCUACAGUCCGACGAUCCACAAUUUUCUAAAGAUGGUUUGGGCUUCCUUACCUCCCAGUGUGAAGUGUUUCAAAUGUCUGUCAGUUCUCUUGCACGGUCCUAAUAAAAGUGAAAGCCCUCUGUCACGUGGAAUUCUCGGGUGCCAA | 0.544 |
| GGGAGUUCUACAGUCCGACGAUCUUUUGUCCUCUUCCAGACACUGUUGCCUCUACCUAGUUAGACAAAUAGGAUUUGACCUACAUUCUGUUGCCCCUAGGUUUGUGUUAGUGUCAGAAAUACUUAAACAGUGGUGGAAUUCUCGGGUGCCAA | 0.309 |
| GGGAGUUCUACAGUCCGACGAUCGUAAGGCAGCUUGUUGGCCCUUGUUACAGUAUCUUAGUGUACCCUCCUGUUACAGCUUCCACACUCAGCCGGCUUGCUUCAGUAUUUUUGCUUCCUGUAUAUUCUUAUACUGGAAUUCUCGGGUGCCAA | 3.03 |
| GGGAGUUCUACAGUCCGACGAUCAAUUCUUAGCACUGGUGUAAAUAUCAUGGUGCCUACUCGAAAGAAAUGUAGAUGCUAUGCAUUUUGAAAAUAAUCUGCAUCAGUUAGAACUGCAGAAGUUUUUUUAAUGCUGGAAUUCUCGGGUGCCAA | 0.406 |

Study 2 — technique: RNA Bind-n-Seq; molecule type: RNA; sample: in vitro; tested at: 100 nM; relative to: input RNA pool; reading: higher = stronger binding
Target: RING finger protein unkempt homolog, zinc fingers 1-6, SBP tag (UNK, Homo sapiens, UniProt Q9C0B0, residues 30-357)
Sequence of UniProt Q9C0B0 (30-357, looked up): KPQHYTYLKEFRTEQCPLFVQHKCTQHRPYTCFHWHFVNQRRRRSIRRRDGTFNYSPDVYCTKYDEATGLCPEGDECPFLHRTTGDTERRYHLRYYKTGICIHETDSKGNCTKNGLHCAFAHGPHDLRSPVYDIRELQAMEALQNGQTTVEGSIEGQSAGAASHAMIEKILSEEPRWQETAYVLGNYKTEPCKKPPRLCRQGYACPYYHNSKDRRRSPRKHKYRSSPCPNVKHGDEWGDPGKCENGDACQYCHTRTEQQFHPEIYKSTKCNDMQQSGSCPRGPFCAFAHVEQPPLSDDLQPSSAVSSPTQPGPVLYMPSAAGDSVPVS
Notes: RNA with constant flanks, vertebrate orthologous sites, ends assumed
| Strand | bound/input enrichment [ratio] |
| --- | --- |
| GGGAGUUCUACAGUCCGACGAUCACCGCAUUAGCACCCUGCCAGCCCAGCAACCUCUCCGUGCACAGCUUAAAUGUUACGGUCUAGCUAGAUUUUUAUUUAAAAUAUGAAAAACUGCUUUUCCCAAGACAUUUUUUAAAGGAACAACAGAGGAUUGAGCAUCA | 0.517 |
| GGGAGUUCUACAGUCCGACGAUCCCCUCUGAAUCCCAUAUCUUCUGUUUCAUAGUGCAGAAGUAUUGUUUUCAAUUACAUUAUUAGUGGACUUGUUUUAAUUUUAGGGAAAUUUUCUGUACUGAUACUGUGAGCUUACAUGGACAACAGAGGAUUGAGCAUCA | 4.19 |
| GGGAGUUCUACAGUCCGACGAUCAUCACUCUAAUUGUAAUCUGAAUAAAGUGUAACAUUGUGUAGCCUUUUUUUUGUAUAAAAUAGACAAAUAGAAAUGGUCCAAUUAGUUUCCUUUUUAAUAUGCUUAAAAUAAGCAGGUGGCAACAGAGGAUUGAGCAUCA | 1.83 |
| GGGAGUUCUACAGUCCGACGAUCACUGUUGUUAAGCACUGUGUUCCAGACCAUGUCUGACUUAGUGUAACCUAGGAGAUUUUAUAGUUUUAUUUUAAUGAAAUCCUGAUUGACGCACAGCAGUGGAGAGAACAGUCUUUUACUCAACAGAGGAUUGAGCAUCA | 1.15 |
| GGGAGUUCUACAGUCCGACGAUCUGUUUUAUGUCUUUGUGGGCAUGGGGGAUCAUGGGGGAUGGGCAGUGGGGGAUUGGAGGCUGGUGUCGUCAUUACCAAGUUUUCUUUUUGUGCUUUGUUUUCCCUUUUAAUUGGUUGCAUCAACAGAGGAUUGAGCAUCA | 0.93 |
| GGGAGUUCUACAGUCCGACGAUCAUCAUCUGACUGGAUGAAGACUGUCCCAAGUUACAACCAAACAAAUAGCUCCAUGGACUUUAGAAAUUACAUGAUGAGAGAUGAGAAUUUGGAGCCACUGCCUAAAAACUGGGAAAUGGCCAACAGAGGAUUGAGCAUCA | 0.444 |

Study 3 — target: CCND2, cyclin fold, Cln2 fusion (human); technique: yeast growth competition, sequencing; sample: yeast; notes: weak parent motif; relative to: not given; reading: higher = stronger binding
Starting sequence: PKMYT1 docking peptide (human); SFEPRNLLSLFED
| Substitution | normalised enrichment score |
| --- | --- |
| SFEHRNLLSLFED [P4H] | 0.0426 |
| SFEPRNLLSCFED [L10C] | 0.169 |
| SFEPLNLLSLFED [R5L] | 0.262 |
| SFEPRNLLSKFED [L10K] | -0.0483 |
| SFKPRNLLSLFED [E3K] | 0.0844 |
| RFEPRNLLSLFED [S1R] | -0.289 |
| SFETRNLLSLFED [P4T] | 0.167 |
| HFEPRNLLSLFED [S1H] | -0.0871 |
| SFEPRNLWSLFED [L8W] | 0.185 |

Other studies, line by line
| Molecule | target | test | system | setting | scale | measurement | result |
| --- | --- | --- | --- | --- | --- | --- | --- |
| PhoQ, residues 284 288 289 292 302 303 SLANIV | PhoP, residues 12 14 15 18 19 VQALL (Escherichia coli, UniProt P23836) | Sort-seq, refers to: YFP reporter | E. coli | PhoQ-PhoP variant library, together with: 10 µM Mg2+ | relative to: high Mg2+ state, higher = stronger signaling | fold induction | 14.9 |

A few entries again (study 1):
| Strand | RBNS enrichment (R) |
| --- | --- |
| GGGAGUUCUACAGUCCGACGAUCGACAGCUAGCUAAGUCAAGCUUUUCAAUAGAGGAGAAAAUAAAGAUGGCGACAGGUUGGCUUAGGUGGAGGAAGAAAAGAGUUAUCAUUUUUAGACUAAAUCCACGCAUGUGGAAUUCUCGGGUGCCAA | 0.569 |
| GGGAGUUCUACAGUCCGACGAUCCUUCACAUUCAAAGACUGUCACCCAUGAACGUCAGACUUUGCAAAGGGGCUCUCUAAGCUGCACUGUUGUGGCUUUGUCUAAAAUUUUAAUGACGUUUCUGAGAACCAUGUGGAAUUCUCGGGUGCCAA | 0.395 |
| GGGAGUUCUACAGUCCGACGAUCAUCCUGGCUUUGCCCAACCUCAGCAACCUGUAAGACUGAUAAUGAAAUAAAUCAUGUUAAUCCUAGCUGUGUGCAGUCUCUCUUACCCUUCUGUGCCCAGCUCAGUCUUCUGGAAUUCUCGGGUGCCAA | 0.32 |
| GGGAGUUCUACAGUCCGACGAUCCACAAUUUUCUAAAGAUGGUUUGGGCUUCCUUACCUCCCAGUGUGAAGUGUUUCAAAUGUCUGUCAGUUCUCUUGCACGGUCCUAAUAAAAGUGAAAGCCCUCUGUCACGUGGAAUUCUCGGGUGCCAA | 0.544 |
